Experimental data of several laboratories.
Protocols differ between the studies behind these lines. ± gives the spread as reported.

Compound | test | test system | setting | tracer uptake
CN([O-])C(=O)CN1CCNCCN(CC(=O)N(C)[O-])CC1.[89Zr+4] |  | mouse, blood | intravenous, 4 h | 0.26 %ID/g
CN(Cc1ccccc1)C(=O)CN1CCN(CC(=O)[O-])CCN(CC(=O)N(C)Cc2ccccc2)CC1.[18F-].[Sc+3] |  | mouse, heart | intravenous, 1 h | 0.12 %ID/g
COc1ccc2c(c1)C(C)(C)C(/C=C/C1=C(Oc3ccc(C(=O)NCCCCOc4cc(CN(Cc5ccccn5)Cc5ccccn5)cc(CN(Cc5ccccn5)Cc5ccccn5)c4)cc3)C(=C/C=C3/N(CCCCS(=O)(=O)[O-])c4ccc(OC)cc4C3(C)C)CCC1)=[N+]2CCCCS(=O)(=O)[O-].O=[N+]([O-])[O-].O=[N+]([O-])[O-].[99Tc+].[C-]#[O+].[C-]#[O+].[C-]#[O+].[Zn+2] |  | mouse, heart | 12 h | 1.33 %ID/g
CN([O-])C(=O)CN1CCN(CC(=O)N(C)[O-])CCN(Cc2ccccn2)CC1.[89Zr+4] |  | mouse, kidney | intravenous, 24 h | 1.29 %ID/g
CC(=O)N([O-])CCCCCNC(=O)CCC(=O)N([O-])CCCCCNC(=O)CCC(=O)N([O-])CCCCCN.[89Zr+4] |  | mouse, pancreas | 1 h | 0.17 %ID/g
Cc1nc(N)nc2c1C(=O)N[C@@H](c1ccc(F)cc1-c1cccc(O[11CH3])n1)C2 | ex vivo biodistribution | mice, MDA-MB-231 subcutaneous xenograft, heart | 60 min post-injection, baseline, vehicle pre-treatment | 0.7 ± 0.03 %ID
CN(Cc1ccccc1)C(=O)CN1CCN(CC(=O)[O-])CCN(CC(=O)[O-])CC1.[44Sc+3] |  | mouse, muscle | intravenous, 1 h | 0.22 %ID/g
[123I]c1ccc2nc(-c3ccc(-n4ccnn4)nc3)cn2c1 |  | male Wistar rat, lung | intravenous, 4 MBq, 14 h | 0.012 %ID/g
CN(Cc1ccccc1)C(=O)CN1CCN(CC(=O)N(C)Cc2ccccc2)CCN(Cc2cccc(C(=O)[O-])n2)CC1.[44Sc+3] |  | mouse, muscle | intravenous, 1 h | 0.28 %ID/g
CN(O)C(=O)CCC(=O)NCCCN(CCCCN(CCCNC(=O)CCC(=O)N(C)O)C(=O)CCC(=O)N(C)O)C(=O)CCC(=O)N(C)O.[89Zr] |  | mouse, pancreas | 1 h | 0.29 %ID/g
CN(Cc1ccccc1)C(=O)CN1CCN(CC(=O)[O-])CCN(Cc2cccc(C(=O)[O-])n2)CC1.[44Sc+3] |  | mouse, lung | intravenous, 1 h | 0.88 %ID/g
CC(C(=O)O)n1nc(Cn2cc3cc(OCC[18F])c(Cl)cc3n2)c2ccccc2c1=O (racemic) |  | rat, heart | 5 min | 0.26 %ID/g

A few entries again:
Compound | test | test system | setting | tracer uptake
[123I]c1ccc2nc(-c3ccc(-n4ccnn4)nc3)cn2c1 |  | male Wistar rat, lung | intravenous, 4 MBq, 14 h | 0.012 %ID/g
